Results collected from several papers.
Numbered parts are unrelated; each lists some results of a single study.

Study 1
Target: TAR DNA-binding protein 43, full length, His tag (TARDBP, Homo sapiens, UniProt Q13148, residues 1-414)
Technique: RNA Bind-n-Seq
Molecule type: RNA
Sample: in vitro
Concentration: 20 nM
Notes: 6-mer, flanks averaged, single round
Added: 150 mM KCl
Baseline: input library
Reading: higher = stronger binding
Sequence	6-mer enrichment (R)
ACUGCA	0.674
UGGUCU	0.705
AAGCAC	0.648
UCAGAC	0.618
GUUCCU	0.599

Study 2
Target: Interferon regulatory factor 7, full length, phosphomimetic (IRF7, Homo sapiens, UniProt Q92985, residues 1-503, S101K/S471D/S472D/S475D/S476D/S477D/S483D/S484D/S487D)
Technique: protein-binding microarray
Molecule type: double-stranded DNA, one strand shown
Sample: in vitro
Concentration: 250 nM
Notes: 60-bp whole probe
Added: salmon DNA 0.4 mg/ml
Baseline: random background probes
Reading: higher = stronger binding
All sequences stand within: GCCTAGCAC … GTCTTGATTCGCTTGACGCTGCTG
Target sequence (chain): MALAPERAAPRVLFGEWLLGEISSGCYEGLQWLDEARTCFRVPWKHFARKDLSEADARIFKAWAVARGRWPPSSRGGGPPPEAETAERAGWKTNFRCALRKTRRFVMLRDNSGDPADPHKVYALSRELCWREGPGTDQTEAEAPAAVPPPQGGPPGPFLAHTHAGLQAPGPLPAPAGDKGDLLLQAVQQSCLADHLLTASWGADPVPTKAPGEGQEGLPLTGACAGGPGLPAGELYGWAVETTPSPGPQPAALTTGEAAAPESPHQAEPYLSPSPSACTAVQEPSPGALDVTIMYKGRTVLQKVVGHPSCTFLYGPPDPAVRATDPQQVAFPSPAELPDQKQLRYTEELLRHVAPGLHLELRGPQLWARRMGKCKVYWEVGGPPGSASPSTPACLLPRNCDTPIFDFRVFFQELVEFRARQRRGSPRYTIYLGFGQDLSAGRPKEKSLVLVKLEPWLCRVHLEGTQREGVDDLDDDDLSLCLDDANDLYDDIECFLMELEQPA
Sequence	log fluorescence [z-score]
GACGGACTGGACTTTCCGGACGTGCTA	-0.598
TTAGGTATCGGTTTCGGTGAGTGCTAG	6.29
GACGGCTTCCTACTGCTGACGTGCTAG	-0.35
AGGACTCGAATCCTGCAGGGGTGCTAG	2.4
TCATGCTTGGGTCTGGGACTGTGCTAG	-0.587
TCATTTTTTTTCTTTAAACTGTGCTAG	0.95

Study 3
Target: Histone acetyltransferase KAT6A, both winged helices, GST fusion (KAT6A, Homo sapiens, UniProt Q92794, residues 1-181)
Technique: protein binding microarray
Molecule type: double-stranded DNA, one strand shown
Sample: in vitro
Concentration: not given
Notes: 8-mer, flanks averaged, mean of 2 arrays, mostly near background
Baseline: not given
Reading: higher = stronger binding
Residues (chain): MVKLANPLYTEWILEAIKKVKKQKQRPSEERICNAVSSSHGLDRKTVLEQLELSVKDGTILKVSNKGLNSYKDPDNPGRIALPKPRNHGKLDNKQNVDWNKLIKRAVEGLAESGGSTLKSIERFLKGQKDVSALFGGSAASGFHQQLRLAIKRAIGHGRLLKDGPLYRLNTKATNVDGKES
Sequence	E-score
CGCCTTAG	0.172
AGCCCGAT	-0.0293
CTCGGGCA	0.0966
GTAGAATA	-0.108
CTGCATGA	-0.166
AATCAGCC	-0.0159
GAGAGGAC	-0.0387

Mixed results
Molecule	target	test	system	conditions	scale	measurement	result
PhoQ, residues 284 288 289 292 302 303 HSYLQF	PhoP, residues 12 14 15 18 19 HLGGL (Escherichia coli, UniProt P23836)	Sort-seq, refers to: YFP reporter	E. coli	PhoQ-PhoP variant library, added: 10 µM Mg2+	baseline: high Mg2+ state, higher = stronger signaling	fold induction	1.13

Excerpt of the above (mixed results):
Molecule	target	test	system	conditions	scale	measurement	result
PhoQ, residues 284 288 289 292 302 303 HSYLQF	PhoP, residues 12 14 15 18 19 HLGGL (Escherichia coli, UniProt P23836)	Sort-seq, refers to: YFP reporter	E. coli	PhoQ-PhoP variant library, added: 10 µM Mg2+	baseline: high Mg2+ state, higher = stronger signaling	fold induction	1.13
